{"data": "Experimental data from different studies", "Ahr": "Aryl hydrocarbon receptor (Ahr, Rattus norvegicus, UniProt P41738)", "note": "Each line is one published result; not all experiments were run side by side. Several values in a cell are separate wells, animals, samples, runs or records. Numbers after ± are the reported error."}
{"SMILES": "Cn1c(N)nc2c3cccnc3ccc21", "target": "Ahr", "assay": "reporter gene, activator", "how to read": "reference: baseline cytotoxicity over effect concentration", "quantity": "specificity ratio", "result": 427}
{"SMILES": "C[C@H]1CN(c2n[nH]c3nc(N[C@H]4CC[C@H](NS(=O)(=O)CCC(F)(F)F)CC4)ncc23)CCO1", "target": "Tight junction protein 1 (TJP1, Homo sapiens, UniProt Q07157)", "assay": "Kinobeads competition, measured: TJP1", "setting": "0.032 µM, unit not given", "how to read": "reference: vehicle", "quantity": "remaining binding", "result": 1.09}
{"SMILES": "O=C(Nc1cccnn1)N1CCC(=Cc2cccc(Oc3ccc(C(F)(F)F)cn3)c2)CC1", "target": "PTGER3 (Homo sapiens, UniProt P43115)", "assay": "radioligand binding, inhibitor", "setting": "50 µM, human, added: [3H]prostaglandin E2", "quantity": "inhibition", "result": "44%"}
{"SMILES": "COc1cc(Nc2ncc(F)c(Nc3ccc4c(n3)NC(=O)C(C)(C)O4)n2)cc(OC)c1OC", "target": "SRPK3 (Homo sapiens, UniProt Q9UPE1)", "assay": "KINOMEscan", "setting": "10 µM", "quantity": "inhibition", "result": "12%"}
{"SMILES": "CNC(=O)Oc1ccccc1OC(C)C", "target": "uncharacterized protein (Anopheles coluzzii, UniProt A0A6E8VQK1)", "assay": "enzyme activity, inhibitor", "system": "Sf9 cell homogenate", "setting": "22.94 µM, 0.1667 h, added: α-naphthyl acetate substrate", "how to read": "reference: no inhibitor", "quantity": "remaining activity", "result": "11.4%"}
{"SMILES": "C[C@@H](O)[C@H](NC(=O)[C@H](Cc1ccccc1)NC(=O)[C@H](Cc1ccccc1)NC(=O)[C@H](CC(=O)O)NC(=O)[C@H](CC(=O)O)NC(=O)[C@H](Cc1c[nH]c2ccccc12)NC(=O)[C@H](CO)NC(=O)[C@@H](N)CCCCN)C(=O)N[C@@H](CCCNC(=N)N)C(=O)O", "target": "Epithelial sodium channel subunit gamma (Homo sapiens, UniProt P51170)", "assay": "binding, bio-layer interferometry", "quantity": "koff", "result": "0.166 s⁻¹"}
{"SMILES": "COc1ccc(N2C(=O)N(c3c(C)cccc3Cl)Cc3cnc(Nc4ccc(C5CCN(C)CC5)cc4OC)nc32)nc1", "target": "CIT (Homo sapiens, UniProt O14578)", "assay": "kinase activity, inhibitor", "setting": "0.5 µM, kinase CRIK", "quantity": "inhibition", "result": "2.19%"}
{"SMILES": "CN1CCN(c2cc(-c3ccncc3)c(-c3ccc4ccccc4c3)nn2)CC1", "target": "PTGER1 (Homo sapiens, UniProt P34995)", "setting": "10 µM", "quantity": "inhibition", "result": "13.2%"}
{"SMILES": "CC[C@@H](C)[C@@H](NC(=O)[C@@H](Cc1ccc(O)cc1)NC(=O)[C@H]1CCCN1C(=O)[C@@H](CCCNC(=N)N)NC(=O)[C@H](N)Cc1c[nH]cn1)C(=O)N[C@H](C)C(=O)N[C@H](Cc1c[nH]cn1)C(=O)N[C@H](CCCNC(=N)N)C(=O)N[C@H](CCCCNC(=O)c1cccc(S(=O)(=O)F)c1)C(=O)N[C@H](Cc1ccc(O)cc1)C(=O)N[C@H](CO)C(=O)N[C@H](Cc1ccccc1)C(N)=O", "target": "Transferrin receptor protein 1 (Tfrc, Mus musculus, UniProt Q62351)", "assay": "flow cytometry", "system": "DC2.4", "setting": "48 h, pH 6, replicate 3, unit not given", "how to read": "reference: 0 h", "quantity": "surface TFRC expression", "result": 0.741}
{"SMILES": "Clc1cc2c(cc1Cl)Oc1cc(Cl)c(Cl)cc1O2", "target": "Uncharacterized protein (Takifugu rubripes, UniProt Q4JHL6)", "assay": "reporter gene, agonist, dual-luciferase", "system": "COS-7", "setting": "0.1 µM, 28 h", "how to read": "reference: DMSO", "quantity": "fold induction", "result": 7.69}
{"SMILES": "CC(CCn1ccc(-c2ccc(-c3cn(Cc4cccnc4)nn3)cc2)cc1=O)(C(=O)NO)S(C)(=O)=O (stereo not shown)", "target": "UDP-3-O-acyl-N-acetylglucosamine deacetylase (Pseudomonas aeruginosa, UniProt P47205)", "how to read": "reference: 1", "quantity": "residence time", "result": "~3 fold"}
{"SMILES": "c1ccc2c(c1)cc1ccc3cccc4ccc2c1c34", "target": "Ahr", "assay": "agonist, CALUX reporter", "system": "H4IIE", "setting": "0.00126 µg/mL", "quantity": "agonist response", "result": "48.4%"}
{"SMILES": "O=C(c1ccc(Cl)cc1)N1CCN2C(=O)N(OC(=O)N3CCOc4ccccc43)C(=O)C2C1 (stereo not shown)", "target": "Acyl-coenzyme A thioesterase 2, mitochondrial (ACOT2, Homo sapiens, UniProt P49753)", "assay": "MS-based ABPP", "system": "SW-620 conditioned medium", "setting": "10 µM, 1 h, 37 °C", "how to read": "reference: compound over DMSO, lower = more inhibition", "quantity": "mean protein ratio", "result": 1.05}
{"SMILES": "Cc1cc(N2CCNCC2)nc2ccccc12", "target": "CHRM3 (Homo sapiens, UniProt P20309)", "assay": "ERK1/2 phosphorylation, agonist", "system": "CHO cells", "quantity": "Emax", "result": "< 10%"}
{"SMILES": "COc1cc(N)c(Cl)cc1C(=O)NC1CN2CCC1CC2 (stereo not shown)", "target": "G-protein coupled receptor 15 (Homo sapiens, UniProt P49685)", "assay": "β-arrestin recruitment, TANGO luminescence, measured: GPR15", "setting": "concentration not given", "how to read": "reference: basal luminescence", "quantity": "log2 fold change", "result": 0.652}
{"SMILES": "CC[C@H](C)[C@H](NC(=O)CNC(=O)[C@@H](N)CCCCN)C(=O)N[C@@H](CC(C)C)C(=O)N[C@@H](CCCCN)C(=O)N[C@@H](CC(N)=O)C(=O)N[C@@H](CCCNC(=N)N)C(=O)N[C@@H](C)C(=O)N[C@@H](CCCNC(=N)N)C(=O)N[C@@H](CCCNC(=N)N)C(=O)N[C@@H](CCC(=O)O)C(=O)N[C@@H](CCCNC(=N)N)C(=O)N1CCC[C@H]1C(=O)NCC(=O)N[C@@H](CCCCN)C(=O)N[C@@H](CCCNC(=N)N)C(=O)N[C@@H](CCCCN)C(=O)N[C@H](C(=O)N[C@H](C(=O)N[C@H](C(=O)N[C@@H](Cc1c[nH]c2ccccc12)C(=O)N1CCC[C@H]1C(=O)N[C@@H](CCC(=O)O)C(=O)N[C@@H](CCC(=O)O)C(=O)NCC(=O)N[C@@H](CCCCN)C(=O)N[C@@H](CC(C)C)C(=O)N[C@@H](CCCNC(=N)N)C(=O)N[C@@H](CCC(=O)O)C(=O)N[C@@H](Cc1ccc(O)cc1)C(=O)N[C@@H](Cc1ccccc1)C(=O)N[C@@H](Cc1ccc(O)cc1)C(=O)N[C@@H](Cc1ccccc1)C(=O)N[C@@H](CCC(=O)O)C(=O)N[C@@H](CC(C)C)C(=O)N[C@@H](CC(=O)O)C(=O)N[C@@H](CCC(=O)O)C(=O)N[C@H](C(=O)N[C@@H](CCC(=O)O)C(=O)N[C@@H](CCCNC(=N)N)C(=O)N[C@H](C(=O)N[C@@H](CC(N)=O)C(=O)N[C@H](C(=O)O)C(C)C)C(C)C)[C@@H](C)O)[C@@H](C)O)C(C)C)[C@@H](C)O", "target": "PPP1CA (Homo sapiens, UniProt P62136)", "assay": "binding, isothermal titration calorimetry", "setting": "concentration not given, 25 °C, PP1α residues 7-330", "quantity": "enthalpy change ΔH", "result": "-31.8 ± 1.2 kcal/mol"}
{"SMILES": "C/C(=C\\C(=O)OCCCCCCCC(=O)Nc1c2sscc-2[nH]c1=O)[C@@H](O)[C@@H]1OC[C@H](C/C=C/[C@@H](C)[C@H](C)O)[C@@H](O)[C@H]1O", "target": "Isoleucine--tRNA ligase (ileS, Staphylococcus aureus, UniProt Q5HGN8)", "assay": "isothermal titration calorimetry", "setting": "concentration not given, pH 7.4, 25 °C, nonreducing", "quantity": "enthalpy of binding", "result": "-12.4 ± 0.4 kcal/mol"}
{"SMILES": "O=C(Nc1cnccc1Cl)N1CCN(Cc2ccc3c(c2)OC(F)(F)O3)CC1", "target": "Adra1a (Rattus norvegicus, UniProt P43140)", "assay": "binding", "setting": "10 µM, added: [3H]prazosin", "quantity": "inhibition", "result": "17%"}
{"SMILES": "C[C@]12CC[C@H]3[C@@H](CCC4=CC(=O)CC[C@@]43C)[C@@H]1CC[C@@H]2C(=O)CO", "target": "CYP11B2 (Homo sapiens, UniProt P19099)", "assay": "substrate", "setting": "steady state", "quantity": "corticosterone formation rate", "result": "34.3 pmol/min/pmol P450"}
{"SMILES": "CO[P@@](=O)(Oc1ccccc1)Oc1ccc([N+](=O)[O-])cc1", "target": "had (Sphingobium sp. TCM1, UniProt A0A077JBW9)", "quantity": "Km", "result": "380 ± 40 µM"}
{"SMILES": "[2H]c1c([2H])c([C@]2([2H])CCCN2C(=O)C(C)(C)Oc2ccc3cn[nH]c3c2)c([2H])c([2H])c1C([2H])([2H])[2H]", "target": "MAP3K12 (Homo sapiens, UniProt Q12852)", "assay": "KINOMEscan", "setting": "1 µM", "how to read": "reference: DMSO control", "quantity": "remaining binding", "result": "100%"}
{"SMILES": "N.N.N.N.N.N.N.N.N.N.N.N.N.N.[Cl-].[Cl-].[Cl-].[Cl-].[Cl-].[Cl-].[O-2].[O-2].[Ru+3].[Ru+3].[Ru+4]", "target": "DCLRE1A (Homo sapiens, UniProt Q6PJP8)", "assay": "exonuclease activity, inhibitor, fluorescence HTS", "setting": "10 µM, 80 min, added: 8 nM 5P-FQ substrate", "how to read": "reference: high and low controls", "quantity": "remaining activity", "result": "41.6%"}
{"SMILES": "[Cl][Cd][Cl]", "target": "Voltage-dependent P/Q-type calcium channel subunit alpha-1A (Homo sapiens, UniProt O00555)", "assay": "channel activity, antagonist", "system": "human cells", "quantity": "IC50", "result": "780 nM"}
{"SMILES": "COc1cc2c3cc1Oc1cc(ccc1O)C[C@@H]1c4c(cc(OC)c(O)c4Oc4ccc(cc4)C[C@@H]3N(C)CC2)CC[N+]1(C)C", "target": "Chrnd/Chrna1/Chrne (Mus musculus, UniProt P02716+P04756+P20782)", "assay": "two-electrode voltage clamp", "system": "mouse hemidiaphragm", "setting": "up to 0.5 µM", "quantity": "voltage sensitivity change", "result": "no effect"}
{"SMILES": "CN(C(=O)n1cnc(-c2ccc[n+]([O-])c2)c1)C1CCCCC1", "target": "MAPKAPK5 (Homo sapiens, UniProt Q8IW41)", "assay": "kinase activity, inhibitor", "setting": "10 µM, added: PRAK substrate peptide", "quantity": "inhibition", "result": "5%"}
{"SMILES": "CO[C@H]1C[C@H](O[C@@H]2/C(C)=C/C[C@@H]3C[C@@H](C[C@]4(CC[C@H](C)[C@@H](C5CCCCC5)O4)O3)OC(=O)[C@@H]3C=C(C)/C(=N/O)[C@H]4OC/C(=C\\C=C\\[C@@H]2C)[C@]43O)O[C@@H](C)[C@@H]1O", "target": "Nuclear receptor subfamily 1 group I member 3 (Homo sapiens, UniProt Q14994)", "system": "cells", "setting": "concentration not given", "quantity": "activity", "result": "inactive"}
{"SMILES": "C[C@H]1COCCN1c1nc(NCc2cccnc2C(F)(F)F)c2cccnc2n1", "target": "DRD1 (Homo sapiens, UniProt P21728)", "assay": "binding", "setting": "CEREP panel", "quantity": "IC50", "result": "> 100000 nM"}
{"SMILES": "O=C1CC(C(=O)O)NC(=O)N1 (stereo not shown)", "target": "Dihydroorotate dehydrogenase A (fumarate) (pyrDA, Lactococcus lactis subsp. cremoris, UniProt A2RJT9, L71F)", "assay": "flavin reduction, stopped-flow", "system": "Lactococcus lactis", "setting": "pH 8.5, 4 °C", "quantity": "kred", "result": "0.015 ± 0.002 s⁻¹"}
{"SMILES": "O=C(O)CCC(=O)C(=O)O", "target": "HIF1AN (Homo sapiens, UniProt Q9NWT6, E105A)", "assay": "cosubstrate", "setting": "pH 7.00, 37.0 °C, mutant E105A, added: CTAD peptide 100 µM, cosubstrate 217 µM", "quantity": "apparent kcat", "result": "0.383 ± 0.05 s⁻¹"}
{"SMILES": "Nc1ncc(-c2nc(N3CCOCC3)nc(N3CCOCC3)n2)c(C(F)F)n1", "target": "CDK15 (Homo sapiens, UniProt Q96Q40)", "assay": "KINOMEscan", "setting": "10 µM", "quantity": "remaining binding", "result": "94%"}
{"SMILES": "C[C@@H](O)[C@H](NC(=O)c1ccc(-c2ccccc2)cc1)C(=O)NO", "target": "UDP-3-O-acyl-N-acetylglucosamine deacetylase (Pseudomonas aeruginosa, UniProt P47205, C40S)", "assay": "ITC", "setting": "concentration not given, 298 K", "quantity": "-TΔS of binding", "result": "-4.32 kcal/mol"}
{"SMILES": "O=P(O)(O)OC[C@H]1C[C@@](O)(CO)[C@@H](O)[C@H](O)[C@@H]1O", "target": "valA (Streptomyces hygroscopicus, UniProt H2K887)", "assay": "phosphate release", "setting": "50 µM", "quantity": "apparent Vmax", "result": "2.8 ± 0.4 µM/min"}
{"SMILES": "Cc1nn(C)cc1-c1nc2c(N3CCN(Cc4ccc(Cl)cc4)CC3)c(Cl)cnc2[nH]1", "target": "ANKK1 (Homo sapiens, UniProt Q8NFD2)", "assay": "KINOMEscan", "setting": "1 µM", "how to read": "reference: DMSO control", "quantity": "remaining binding", "result": "89%"}
{"SMILES": "COC(=O)[C@@]1(O)C[C@H]2O[C@]1(C)n1c3ccccc3c3c4c(c5c6ccccc6n2c5c31)C(=O)NC4", "target": "MAPK3 (Homo sapiens, UniProt P27361)", "assay": "ADP-Glo", "setting": "1 µM, added: MBP substrate", "quantity": "kinase activity", "result": "90.6% and 126% and 96.3%"}
